Published values from different studies.
Parts stem from different laboratories: compare values within a part only.

Study 1
Cell line: mouse MPNST tumor cells
Method: high-content immunofluorescence imaging
Refers to: nuclear SOX9
Tested at: 10 µM
Time: 12 h
Setting: mean of 2 replicates
Reference: DMSO control
Direction: higher = more nuclear SOX9
`CC(=O)OCC(=O)[C@@]1(O)[C@H](C)C[C@H]2[C@@H]3CCC4=CC(=O)C=C[C@]4(C)[C@@]3(F)[C@@H](O)C[C@@]21C`: “nuclear SOX9 intensity” 74.1 % of DMSO.
Under “nuclear SOX9 intensity”, `CCCCC(=O)O[C@H]1CC[C@H]2[C@@H]3CCc4cc(O)ccc4[C@H]3CC[C@]12C` is recorded as 98.2 % of DMSO.
For `Clc1ccc(-c2nc3sccn3c2C=NOCc2ccc(Cl)c(Cl)c2)cc1`, “nuclear SOX9 intensity” read 110 % of DMSO.
`Cc1ccc2c(c1)c1c(n2CCc2ccc(C)nc2)CCN(C)C1`: “nuclear SOX9 intensity” 120 % of DMSO.
`CNc1nc(-c2ccc3c(N)n[nH]c3c2)cc(N2C[C@@H](C(=O)NC3CCCCC3)CC[C@H]2C)n1` — result for “nuclear SOX9 intensity”: 135 % of DMSO.
`NC(=O)c1ccc(-c2nc(-c3ccc4c(c3)OCCO4)c(-c3ccccn3)[nH]2)cc1` — result for “nuclear SOX9 intensity”: 86.2 % of DMSO.
`CC(C(=O)O)c1ccc(C(=O)c2ccccc2)s1` (stereo not shown): “nuclear SOX9 intensity” 104 % of DMSO.
Under “nuclear SOX9 intensity”, `CCC(CC)O[C@@H]1C=C(C(=O)O)C[C@H](N)[C@H]1NC(C)=O` is recorded as 104 % of DMSO.
`CCc1oc2ccccc2c1C(=O)c1cc(Br)c(O)c(Br)c1` — result for “nuclear SOX9 intensity”: 94.9 % of DMSO.
For `CC1(C)CCC[C@]2(C)[C@@H](C=O)C(C=O)=CC[C@@H]12`, “nuclear SOX9 intensity” read 98 % of DMSO.
`Cc1ccc(S(=O)(=O)NCc2ccccc2)cc1` — result for “nuclear SOX9 intensity”: 91.1 % of DMSO.
Under “nuclear SOX9 intensity”, `Nc1ncnc2c1cnn2-c1ccccc1` is recorded as 109 % of DMSO.
`O=C(c1cn(Cc2cncn2Cc2ccc(Br)cc2)cc1-c1cccc2ccccc12)N1CCOCC1` — result for “nuclear SOX9 intensity”: 60.8 % of DMSO.
For `N#Cc1cccc(-c2nc(-c3cccnc3)no2)c1`, “nuclear SOX9 intensity” read 102 % of DMSO.
For `Nc1nc2n[nH]nc2c(=O)[nH]1`, “nuclear SOX9 intensity” read 124 % of DMSO.
For `Cc1c(F)c(N2CCNC(C)C2)cc2c1c(=O)c(C(=O)O)cn2C1CC1` (stereo not shown), “nuclear SOX9 intensity” read 89.9 % of DMSO.
`CC(=O)Nc1ccc(C(=O)Nc2ccccc2N)cc1` — result for “nuclear SOX9 intensity”: 88.7 % of DMSO.
`O=C(N[C@H](CO)[C@H](O)c1ccc([N+](=O)[O-])cc1)C(Cl)Cl`: “nuclear SOX9 intensity” 97.5 % of DMSO.
Under “nuclear SOX9 intensity”, `CC[C@@]1(O)C(=O)OCc2c1cc1n(c2=O)Cc2cc3c(CN(C)C)c(O)ccc3nc2-1` is recorded as 193 % of DMSO.

Study 2
Host: human
Sample: microsomes or S9
Tested at: 2 µM
Time: 0.5 h
`COc1cc(S(=O)(=O)N2CCC(C(N)=O)CC2)c(OC)cc1Cl` gave a remaining compound of 85.7%.
For `CN1CC[C@H](Oc2cc(N3Cc4ccccc4C3=O)ccc2Cl)C1`, the remaining compound was 28.7%.
The remaining compound of `CC(C)[C@@H](NS(=O)(=O)c1c(N)cc(Cl)cc1Cl)C(=O)NOC(C)(C)C` is reported as 0%.
The remaining compound of `COC(=O)c1ccc(S(C)(=O)=O)c(COCCn2cncn2)c1Cl` is reported as 0.507%.
`N#Cc1ncc(Br)cc1NC(=O)C(F)(F)F` gave a remaining compound of over 99%.
`CCOC(=O)C(C)(C)Cc1nc(-c2ccc(OCc3ccc(OC)cc3)cn2)no1` gave a remaining compound of 0.995%.
The remaining compound of `Cc1noc(C)c1S(=O)(=O)N1CCC(OCc2noc(C3CCCO3)n2)CC1` (stereo not shown) is reported as 37.7%.
`O=C(Cn1nc2c(cc1=O)CCCC2)Nc1nc(-c2ccc3c(c2)OCO3)cs1` gave a remaining compound of 68%.
The remaining compound of `Fc1cc(F)cc(-c2cncc(COc3ccccc3)c2)c1` is reported as 0.229%.
`Cc1ccc(-c2nnco2)cc1N1C(=O)NC(C)(c2ccc(S(C)(=O)=O)cc2)C1=O` (stereo not shown) has a remaining compound of 89.5%.
`CC(C)CCn1c(N)nc2c1c(=O)nc(O)n2C` has a remaining compound of 71.3%.
`CN1CCCn2nc(C(=O)N(C)Cc3cc4cc(F)ccc4[nH]3)cc2C1` gave a remaining compound of 45.7%.
With `COC(=O)c1[nH]cc(C(=O)C2CCNCC2)c1C` the remaining compound was 85.8%.
`CC1CCC(N(Cc2nnc(C3CCC3)n2C)CC2CCCO2)CC1` (stereo not shown) has a remaining compound of 38.6%.
For `Fc1cnc(Nc2ccccc2Cl)nc1Nc1ccccc1Cl`, the remaining compound was 17.6%.
`O=C1OC2(CCCN(C(=O)Cc3cccc4ccccc34)C2)c2ccccc21` (stereo not shown) has a remaining compound of 1.26%.

Study 3
Target: Serine/threonine-protein kinase PAK 4 (PAK4, Homo sapiens, UniProt O96013)
Chain of UniProt O96013 (whole entry, looked up): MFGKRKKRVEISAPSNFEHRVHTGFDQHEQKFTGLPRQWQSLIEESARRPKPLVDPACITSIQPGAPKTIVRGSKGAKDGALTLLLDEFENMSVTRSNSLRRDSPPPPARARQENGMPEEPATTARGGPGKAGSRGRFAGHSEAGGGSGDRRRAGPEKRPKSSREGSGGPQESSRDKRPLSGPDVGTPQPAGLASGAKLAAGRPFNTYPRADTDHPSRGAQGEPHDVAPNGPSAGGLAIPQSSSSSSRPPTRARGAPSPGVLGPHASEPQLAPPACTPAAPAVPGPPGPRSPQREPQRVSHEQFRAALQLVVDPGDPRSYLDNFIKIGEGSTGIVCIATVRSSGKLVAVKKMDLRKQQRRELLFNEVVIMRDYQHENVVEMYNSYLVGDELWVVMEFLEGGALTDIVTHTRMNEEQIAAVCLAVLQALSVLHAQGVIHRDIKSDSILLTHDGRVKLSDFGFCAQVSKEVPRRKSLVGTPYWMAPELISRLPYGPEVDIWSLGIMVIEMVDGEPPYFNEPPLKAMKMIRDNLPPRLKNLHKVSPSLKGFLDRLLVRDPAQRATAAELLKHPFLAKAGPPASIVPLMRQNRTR
Observed: enzyme activity
Action: inhibitor
Tested at: 0.5 µM
Reference: control
`CCCCc1c(-c2ccc(O)cc2)[nH]c2nccnc12` gave a remaining activity of 108%.
`FC(F)(F)c1ccc(/C=C/c2nc(COc3ccc(CCCCn4ccnn4)cc3)co2)cc1` has a remaining activity of 107%.
`N#C/C(=C(/N)SC1C=CC=CC1)c1cccc(C(O)c2ccncc2)c1` (stereo not shown) gave a remaining activity of 76.3%.
`c1cc(-c2cnn3cc(-c4ccc(OCCN5CCCCC5)cc4)cnc23)ccn1` has a remaining activity of 109%.
`CC(C)N(CCC(=O)c1ccc2ccccc2c1)Cc1ccccc1` has a remaining activity of 90.4%.
`CC(C)n1cnc2c(Nc3cccc(Cl)c3)nc(NCCO)nc21` has a remaining activity of 105%.
`O=C(O)/C=C/c1cc(Br)c(Br)c(Br)c1Br` gave a remaining activity of 104%.
`CNc1cc2c(Nc3cccc(Br)c3)ncnc2cn1` has a remaining activity of 93%.
The remaining activity of `O=Nc1c(-c2c(O)[nH]c3ccccc23)[nH]c2ccccc12` is reported as 77.1%.
`O=c1c(-c2ccc(F)cc2)c(-c2ccncc2)[nH]n1-c1ccc(Cl)cc1` has a remaining activity of 82%.
With `C[C@@H](N)[C@H]1CC[C@H](C(=O)Nc2ccncc2)CC1` the remaining activity was 90.3%.
`O=C(c1ccccc1)c1ccc(N2CCOCC2)cc1O` gave a remaining activity of 104%.
The remaining activity of `CC(C)(C)c1nc2c3cc[nH]c(=O)c3c3cc(F)ccc3c2[nH]1` is reported as 105%.
With `NC(=O)c1cccc(-c2cc(Nc3ccc(OC(F)(F)F)cc3)ncn2)c1` the remaining activity was 94.6%.
`CCN(CC)CCCCN1c2ccccc2Oc2ccc(Cl)cc21` gave a remaining activity of 104%.
`Clc1ccc(Nc2nnc(Cc3ccncc3)c3ccccc23)cc1` has a remaining activity of 95.8%.
`N#CC(c1ccnc(NCCc2cccnc2)n1)c1nc2ccccc2s1` (stereo not shown) has a remaining activity of 91.3%.
For `O=C1NC(=O)/C(=C/c2ccc3c(c2)OC(F)(F)O3)S1`, the remaining activity was 90%.
`O=C1c2ccccc2-c2nc3nnnn3nc21` has a remaining activity of 91.4%.
With `NC(=O)c1ccc(-c2nc(-c3ccc4c(c3)OCCO4)c(-c3ccccn3)[nH]2)cc1` the remaining activity was 105%.
With `COc1cc2c(Nc3ccc(Br)cc3F)ncnc2cc1OCC1CCN(C)CC1` the remaining activity was 90.2%.
For `Nc1nc(Nc2ccc(S(N)(=O)=O)cc2)nn1C(=S)Nc1c(F)cccc1F`, the remaining activity was 47.6%.

Study 4
Cell line: normal organoid sample G
Method: CellTiter-Glo
Host: human
Sample: normal-adjacent epithelium
Tested at: 1 µM
Reference: DMSO
`CN(C)[C@@H]1CCN(c2cc(-c3ccccc3)nc3ccnn23)C1` has a viability of 118%.
`c1ccc2oc(-c3csc(C4CCN(Cc5nc6ncccc6[nH]5)CC4)n3)cc2c1` has a viability of 64.1%.
`Cc1nc(C2CCN(C(=O)c3ccc(OC(F)(F)F)cc3N)CC2)c2ncc(N3CCN(C)CC3)cc2n1` has a viability of 112%.
With `O=C(O)c1ccc(-c2c[nH]c3ncc(-c4ccccc4)cc23)cc1C1CCCC1` the viability was 111%.
With `Nc1nc(NCc2ccccc2)nc(-c2ccccc2CO)n1` the viability was 113%.
The viability of `CC(=O)Nc1c(F)cc(C(=O)N[C@H]2CC[C@H](O)CC2)cc1O[C@@H](C)c1ccccc1` is reported as 120%.
The viability of `O=C1c2ccc(Nc3ccc(F)cc3F)cc2CCc2ccc(OC[C@H](O)CO)cc21` is reported as 125%.
The viability of `Cc1c(N2CCCC2)nc2ccc(Br)cc2c1C(=O)NC[C@H](CCC(=O)O)c1ccccc1Cl` is reported as 98.9%.
`Cc1cnc(-c2cc(Cl)ccc2F)cc1-n1c(=O)n(CC(N)=O)c2cnccc21` has a viability of 96.1%.
For `C[C@@H](c1cccc(C#N)c1)n1cc(Cl)cc(C(N)=O)c1=N`, the viability was 105%.
`CNC(=O)c1ccccc1Nc1cc(Nc2ccc(N3CCOCC3)cc2OC)ncc1C(F)(F)F` has a viability of 31.3%.
`CO[C@@H](C)c1c(Nc2ccc([C@H](N(C)C(=O)C3CCS(=O)(=O)CC3)C(F)(F)F)cc2)cnc2cc(Cl)nn12` gave a viability of 96.1%.
For `Cc1ccc2nc(CNCCCOc3ccccc3)cc(O)c2c1`, the viability was 92.5%.
With `N#CC1(c2ccccn2)CCN(Cc2cc(C(=O)N3CCCC3)c(=O)n3ccccc23)CC1` the viability was 116%.
`Cc1c(C(=O)O)cc(-c2ccc(C3CCNCC3)cc2)c2ccc(-c3ccc(C(F)(F)F)cc3)cc12` gave a viability of 102%.
The viability of `O=C(NCCN1CCOCC1)c1ccc2c(c1)C(=O)c1ccc(Nc3ccc(F)c(NC(=O)c4ccccc4)c3)cc1CC2` is reported as 92%.
With `Cc1ccc2[nH]c(CNCCCc3ccncc3)cc(=O)c2c1` the viability was 98.3%.
`Nc1nc(NCc2ccccc2)nc(-c2cccc(CO)c2)n1` has a viability of 105%.
`N#CC1(c2ccccn2)CCN(Cc2cc(C(=O)O)c(=O)n3ccccc23)CC1` gave a viability of 108%.
With `Cc1c(N2CCNCC2)nc2ccc(Br)cc2c1C(=O)NC[C@H](CCC(=O)O)c1ccccc1Cl` the viability was 122%.
`Cn1cnc2c(F)c(Nc3ccc(Br)cc3Cl)c(C(=O)NOCCO)cc21` gave a viability of 67.8%.
The viability of `O=C(Nc1cnc(Oc2ccc(F)cc2)nc1)N1CCc2ncccc2[C@@H]1c1ccc(F)cc1` is reported as 116%.
`CO[C@H]1CC[C@H](CNc2ccc(S(=O)(=O)NC(=O)c3ccc(N4CCN(CC5=C(c6ccc(Cl)cc6)CC(C)(C)CC5)CC4)cc3Oc3cnc4[nH]ccc4c3)cc2[N+](=O)[O-])CC1` has a viability of 104%.
`O=C(O)c1cc(-c2ccc(C3CCNCC3)cc2)c2ccc(-c3ccc(C(F)(F)F)cc3)cc2c1` gave a viability of 124%.
`O=C(NNS(=O)(=O)c1ccccc1F)c1cc(F)cc(-c2ccccn2)c1` has a viability of 83.5%.
